Results pooled from the literature.
Lines come from different studies, so protocols differ. Several values in a cell are separate wells, animals, samples, runs or records. ± gives the spread as reported.
B1: CRYAA R21Q/G98R (Homo sapiens, UniProt P02489); sequence looked up; chain MDVTIQHPWFKRTLGPFYPSQLFDQFFGEGLFEYDLLPFLSSTISPYYRQSLFRTVLDSGISEVRSDRDKFVIFLDVKHFSPEDLTVKVQDDFVEIHRKHNERQDDHGYISREFHRRYRLPSNVDQSALSCSLSADGMLTFCGPKIQTGLDATHAERAIPVSREEKPTSAPSS
B2: ITGAV/ITGB8 ectodomain, soluble, clasped; chain 1 FNLDVDSPAEYSGPEGSYFGFAVDFFVPSASSRMFLLVGAPKANTTQPGIVEGGQVLKCDWSSTRRCQPIEFDATGNRDYAKDDPLEFKSHQWFGASVRSKQDKILACAPLYHWRTEMKQEREPVGTCFLQDGTKTVEYAPCRSQDIDADGQGFCQGGFSIDFTKADRVLLGGPGSFYWQGQLISDQVAEIVSKYDPNVYSIKYNNQLATRTAQAIFDDSYLGYSVAVGDFNGDGIDDFVSGVPRAARTLGMVYIYDGKNMSSLYNFTGEQMAAYFGFSVAATDINGDDYADVFIGAPLFMDRGSDGKLQEVGQVSVSLQRASGDFQTTKLNGFEVFARFGSAIAPLGDLDQDGFNDIAIAAPYGGEDKKGIVYIFNGRSTGLNAVPSQILEGQWAARSMPPSFGYSMKGATDIDKNGYPDLIVGAFGVDRAILYRARPVITVNAGLEVYPSILNQDNKTCSLPGTALKVSCFNVRFCLKADGKGVLPRKLNFQVELLLDKLKQKGAIRRALFLYSRSPSHSKNMTISRGGLMQCEELIAYLRDESEFRDKLTPITIFMEYRLDYRTAADTTGLQPILNQFTPANISRQAHILLDCGEDNVCKPKLEVSVDSDQKKIYIGDDNPLTLIVKAQNQGEGAYEAELIVSIPLQADFIGVVRNNEALARLSCAFKTENQTRQVVCDLGNPMKAGTQLLAGLRFSVHQQSEMDTSVKFDLQIQSSNLFDKVSPVVSHKVDLAVLAAVEIRGVSSPDHVFLPIPNWEHKENPETEEDVGPVVQHIYELRNNGPSSFSKAMLHLQWPYKYNNNTLLYILHYDIDGPMNCTSDMEINPLRIKISSLQTTEKNDTVAGQGERDHLITKRDLALSEGDIHTLGCGVAQCLKIVCQVGRLDRGKSAILYVKSLLWTETFMNKENQNHSYSLKSSASFNVIEFPYKNLPIEDITNSTLVTTNVTWGIQPAPMPV; chain 2 EDNRCASSNAASCARCLALGPECGWCVQEDFISGGSRSERCDIVSNLISKGCSVDSIEYPSVHVIIPTENEINTQVTPGEVSIQLRPGAEANFMLKVHPLKKYPVDLYYLVDVSASMHNNIEKLNSVGNDLSRKMAFFSRDFRLGFGSYVDKTVSPYISIHPERIHNQCSDYNLDCMPPHGYIHVLSLTENITEFEKAVHRQKISGNIDTPEGGFDAMLQAAVCESHIGWRKEAKRLLLVMTDQTSHLALDSKLAGIVVPNDGNCHLKNNVYVKSTTMEHPSLGQLSEKLIDNNINVIFAVQGKQFHWYKDLLPLLPGTIAGEIESKAANLNNLVVEAYQKLISEVKVQVENQVQGIYFNITAICPDGSRKPGMEGCRNVTSNDEVLFNVTVTMKKCDVTGGKNYAIIKPIGFNETAKIHIHRNCSCQCEDNRGPKGKCVDETFLDSKCFQCDENKCHFDEDQFSSESCKSHKDQPVCSGRGVCVCGKCSCHKIKLGKVYGKYCEKDDFSCPYHHGNLCAGHGECEAGRCQCFSGWEGDRCQCPSAAAQHCVNSKGQVCSGRGTCVCGRCECTDPRSIGRFCEHCPTCYTACKENWNCMQCLHPHNLSQAILDQCKTSCALMEQQHYVDQTSECFSSPSYLR
B3: TIMP2 27-153 (Homo sapiens, UniProt P16035); sequence looked up; chain CSCSPVHPQQAFCNADVVIRAKAVSEKEVDSGNDIYGNPIKRIQYEIKQIKMFKGPEKDIEFIYTAPSSAVCGVSLDVGGKKEYLIAGKAEGDGKMHITLCDFIVPWDTLSTTQKKSLNHRYQMGCE
B4: CX3CL1 25-339 (Homo sapiens, UniProt P78423); sequence looked up; chain QHHGVTKCNITCSKMTSKIPVALLIHYQQNQASCGKRAIILETRQHRLFCADPKEQWVKDAMQHLDRQAAALTRNGGTFEKQIGEVKPRTTPAAGGMDESVVLEPEATGESSSLEPTPSSQEAQRALGTSPELPTGVTGSSGTRLPPTPKAQDGGPVGTELFRVPPVSTAATWQSSAPHQPGPSLWAEAKTSEAPSTQDPSTQASTASSPAPEENAPSEGQRVWGQGQSPRPENSLEREEMGPVPAHTDAFQDWGPGSMAHVSVVPVSSEGTPSREPVASGSWTPKAEEPIHATMDPQRLGVLITPVPDAQAATR

For `A2M (Homo sapiens, UniProt P01023)`, cross-linked residues read “K426 to K1491” (NALCN (Homo sapiens, UniProt Q8IZF0); cross-linking MS; with: DSSO).
For `B1 (CRYAA R21Q/G98R)`, “ADH aggregation suppression IC50” read 26 µg (ADH1 (Saccharomyces cerevisiae, UniProt P00330); EDTA-induced ADH aggregation, absorbance, inhibitor; 250 µg).
`colistin` has an MIC of 32 µg/mL (Klebsiella pneumoniae; broth microdilution; clinical isolate RKI-No_320/16).
`galanin` has a total conversion of 21.2% and 21.6% (rebH (Lentzea aerocolonigenes, UniProt Q8KHZ8, A442V/K145M/M71V/N467T/N470S/S2P); substrate).
`SLC4A1 (Homo sapiens, UniProt P02730)` — result for cross-linked residues: “E17 to K300” (HAGH (Homo sapiens, UniProt Q16775); cross-linking MS; with: DSSO or DMTMM).
For `B2`, the EC50 was 14.7 nM (TGFB3 fragment, aminocaproic acid, FITC label; fluorescence polarisation; with: CaCl2 1 mM).
`NPDALPETLV` — result for “normalised SPR binding response”: 8.3 normalised RU (human SCRIB PDZ3-4 tandem (MBP fusion); surface plasmon resonance; peptide; concentration not given; higher = stronger binding).
`ALB (Homo sapiens, UniProt P02768)`: cross-linked residues “K223 to K857” (EFL1 (Homo sapiens, UniProt Q7Z2Z2); cross-linking MS; with: DSSO).
The mRNA level of `Peginesatide` is reported as 2.6 fold (UT7/EPO; microarray, refers to: THBS1 mRNA (probe set 235086_at); 20 nM, 90 min; baseline: vehicle).
For `ACOT7 (Homo sapiens, UniProt O00154)`, cross-linked residues read “K286 to K420” (ENO1 (Homo sapiens, UniProt P06733); cross-linking MS; cells; with: iqPIR).
`MCM7 (Saccharomyces cerevisiae, UniProt P38132)` — result for interaction screen: “cross-linked” (MCM6 (Saccharomyces cerevisiae, UniProt P53091); cross-linking MS; hits only).
For `KRE29 (Saccharomyces cerevisiae, UniProt P40026)`, interaction screen read “cross-linked” (SMC5 (Saccharomyces cerevisiae, UniProt Q08204); cross-linking MS; hits only).
The Ki of `B3 (TIMP2 27-153)` is reported as 27.1 ± 3 nM (MMP10 99-263 (Homo sapiens, UniProt P09238); enzyme activity, inhibitor, fluorogenic peptide cleavage assay).
Under cross-linked residues, `FGB (Homo sapiens, UniProt P02675)` is recorded as “K77 to K550” (RAD54L (Homo sapiens, UniProt Q92698); cross-linking MS; with: DSSO).
`B4 (CX3CL1 25-339)` gave a Ki of 0.38 nM (CX3CR1 (Homo sapiens, UniProt P49238-4); AlphaScreen or HTRF).
Under “HLA class I surface increase”, `KLVVVGAGDV` is recorded as -2.7% (HLA class I histocompatibility antigen, A alpha chain, allele A*33:03 (Homo sapiens, UniProt P04439); MHC class I stabilisation, flow cytometry; peptide, TAP2-knockout TISI monoallelic cells; 25 µM, 18 h, 37 °C, with: β2-microglobulin 3 µg/mL; baseline: DMSO).
For `GSGAGKETEC`, the binding intensity was 0.758 (human SCRIB PDZ3-4 tandem (MBP fusion); automated holdup; peptide, crude extract; concentration not given, uncorrected, unit not given; baseline: biotin control resin, higher = stronger binding).
`FGA (Homo sapiens, UniProt P02671)`: cross-linked residues “K440 to K1647” (DSP (Homo sapiens, UniProt P15924); cross-linking MS; with: DSSO).

Some of these lines once more:
`B4 (CX3CL1 25-339)` gave a Ki of 0.38 nM (CX3CR1 (Homo sapiens, UniProt P49238-4); AlphaScreen or HTRF).
